Measured values of several laboratories.
Numbered parts are unrelated; each lists some results of a single study.

Set 1 — technique: RNA Bind-n-Seq; form: RNA; matrix: in vitro; tested at: 365 nM; relative to: no-protein control; reading: higher = stronger binding
Target: RNA binding protein fox-1 homolog 2, RRM domain, GST-SBP tag (RBFOX2, Homo sapiens, UniProt O43251-10, residues 100-194)
Notes: natural RNA segment, single round, ends assumed
Residues (chain): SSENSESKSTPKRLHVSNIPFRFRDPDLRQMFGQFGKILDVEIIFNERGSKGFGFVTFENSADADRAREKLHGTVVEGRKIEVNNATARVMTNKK
| Strand | RBNS enrichment (R) |
| --- | --- |
| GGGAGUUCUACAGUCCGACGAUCCCCACAGCACCACGUCCUCGAAUUCUCAGACGACACCUGGAGACUGUCCCGACACAGCGACGCUCCCCUGAGAGGUUUCUGGGGCCCGCUGCGUGCCAUCACUCAACCAUUGGAAUUCUCGGGUGCCAA | 0.696 |
| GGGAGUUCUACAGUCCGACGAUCGUUUCUUUCGAAUGGCACUACUUUAGGGACAUUCUAGUAUUUGCUUCUAUUGUUUGGGCCUUGUGGAUAAUGUACAGAUUUAAAAACAAAUCUUGUUGCUGAUUUGUCCAUGGAAUUCUCGGGUGCCAA | 0.322 |
| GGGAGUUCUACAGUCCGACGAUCUCUCUCUCCCCCUCAGCAUCUUCCCGCUGAGAGUGGUGGGGAAGAGCCUUGUCUUCUUAGCUGUCACCUGCCGAGGCUUCUGGGCCACUCAGGCCAGUGCACCCCUGGGCUGGAAUUCUCGGGUGCCAA | 0.216 |
| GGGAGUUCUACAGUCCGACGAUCGCUACUGUUAUAAAUCAUAAUGUAAAUCUCUGUGUUUUCUGGUAGUUUUAGGUAACCCCUGUGAGAGGGUCGUUCCAUACUCCACCCCCCAGGGGUCACAACCUACAGGUUGGAAUUCUCGGGUGCCAA | 0.258 |
| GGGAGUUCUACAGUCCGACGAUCAUUAAUUAAUCAUGCUUGGGCUUACUUUUUCAGUUUGUAAGGUUAAGCAUAUGUGCAUGCGUGCGUGUGUAUAUAAAUGCCUUUUCCAUAUCUUAAAUGUCCCUGAUGAGUGGAAUUCUCGGGUGCCAA | 0.623 |
| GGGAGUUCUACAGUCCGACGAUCUAACUGAUGAUAAAACUAAUGGCAGAAAACAAAUUGAACAAUUUCUAUGUAAUGUACAGAUACUAGCAUUGCGCAUAUAGUCUGCUUUCUGUUCCUCCAGAAUUUGAGUCUGGAAUUCUCGGGUGCCAA | 0.465 |
| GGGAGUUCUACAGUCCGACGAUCUGCUACGCGUCAAACGCCUGGAGAACCCCUCGCCCCAGGCGCCGGCACGCCGCCUCCUGCCUCCCUGAGCGCUGCUGCAUCCUGCACGCCCUGGAACCCAGGAGCGCCCCUGGAAUUCUCGGGUGCCAA | 1.67 |
| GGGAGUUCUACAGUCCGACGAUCAUUCAGUCCCCACUGGCCCUGAGCACGACAGCCCUUCUUACCCUCCCAGGAAUGCCGUGAAAGGAGACAAGGUCUGCCCGACCCAUGUCUAUGCUCUACCCCCAGGGUAGUGGAAUUCUCGGGUGCCAA | 0.405 |
| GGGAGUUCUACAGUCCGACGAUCAAAAACAGCAAGACCAGAAGUGCCCAGCCCCUUGCUGACAGAUUGCUUCGUGUGUGUCCCCACACAACACACACUUAAAGCCAUCUGUCACUCUGUAAGUUAUUUUGUACUGGAAUUCUCGGGUGCCAA | 0.4 |
| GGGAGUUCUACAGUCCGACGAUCUCAUUUUAACGUGUUGUUUAUUCUGUUUCACGACCUACAUACAGUUCUUGUGCAUCAGGAUAUAUCAAGCUGCCUUCAUGGCUAUAGAAUGUAAUGUAAGAAAAAUGUUCUGGAAUUCUCGGGUGCCAA | 0.343 |
| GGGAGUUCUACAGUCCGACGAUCCCUUCCCACAGCAUUCCUCCAUCUUAGAUAGAUGGUACUCUCCAAAGGCCCUACCAGAGGGAACACGGCCUACUGAGCGGACAGAAUGAUGCCAAAAUAUUGCUUAUGUCUGGAAUUCUCGGGUGCCAA | 0.712 |
| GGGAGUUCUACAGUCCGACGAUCAAUACCACAAUAUCGUUCCAUGCAUAUAUAACAUAUUAAUACUUGAUUUUGCUGAGCUGCAAAGGUAUCUGUCAUAAAAUAUGGUCCCCAGGAAAAGAAUCUCUGUGCUCUGGAAUUCUCGGGUGCCAA | 0.684 |

Set 2 — technique: protein binding microarray; form: double-stranded DNA, one strand shown; matrix: in vitro; tested at: not given; relative to: not given; reading: higher = stronger binding
Target: Histone acetyltransferase KAT6A, winged helix 2, GST fusion (KAT6A, Homo sapiens, UniProt Q92794, residues 85-181)
Notes: 8-mer, flanks averaged, mean of 2 arrays, mostly near background
Residues (chain): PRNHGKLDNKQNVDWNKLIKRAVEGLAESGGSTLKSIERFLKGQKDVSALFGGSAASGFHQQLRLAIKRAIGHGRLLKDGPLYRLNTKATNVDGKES
| Strand | E-score |
| --- | --- |
| ACCGCAAT | 0.189 |
| CGGACCCG | 0.227 |
| AATTGCTA | -0.086 |
| GTAAGAGA | -0.132 |
| ATGTATAA | -0.171 |
| CCCCTACA | -0.162 |
| CAGAGAAA | 0.146 |
| AGGAACCA | 0.0874 |
| GCCATTCC | 0.0678 |
| GGTGGCGA | 0.00777 |
| AACCGATT | -0.059 |
| CAAGCTCG | 0.104 |
| CTGCGTAC | 0.0928 |
| CCCCTCAG | -0.212 |
| AGTCTGTG | -0.0886 |
| CTTCTAAA | -0.0258 |
| CAACCCCA | 0.0371 |
| AATTCTCA | -0.017 |
| AGAAAAGC | 0.0302 |
| CGCATGTA | -0.123 |

Set 3 — technique: universal PBM; form: double-stranded DNA, one strand shown; matrix: in vitro; tested at: not given; reading: higher = stronger binding
Target: Sal-like protein 4, full length isoform B (SALL4, Homo sapiens, UniProt Q9UJQ4-2, residues 1-616)
Notes: 8-mer, flanks averaged, mean of replicates
| Strand | E-score |
| --- | --- |
| AGAGCAAA | 0.16 |
| GACGATGA | 0.0131 |
| GGTGACGA | 0.0237 |
| AAGGTAGG | 0.0326 |
| CATTGACC | 0.136 |
| ACACCAAT | 0.0783 |
| ACAACGGA | -0.0116 |
| CGAGGAGC | -0.316 |
| AGGTGAAG | -0.0442 |
| CCAGATGC | -0.169 |
| ACCTCTTC | 0.0874 |
| ATTAAACA | 0.318 |
| ACCCGACG | -0.325 |
| CATTACCG | 0.0147 |
| GCGTCACC | -0.293 |
| AGTGTCAC | -0.0624 |
| CCTGCGCA | -0.16 |
| ATTCGAAT | 0.283 |
| CAATATGG | 0.18 |
| CGACGGCG | -0.345 |
| TCTCCCAA | 0.0146 |
| AGTAACGG | 0.0725 |
| AAAAGATA | 0.309 |
| CGTAGCGA | -0.156 |
| ATTGACGG | 0.0689 |

Set 4 — technique: protein-binding microarray; form: double-stranded DNA, one strand shown; matrix: in vitro; tested at: not given; reading: higher = stronger binding
Target: Max dimerization protein 1, bHLH-zipper, MAX partner unstated (MXD1, Homo sapiens, UniProt Q05195, residues 56-136)
Notes: k-mer, scored over probes, only values ≥0.25
Target sequence (chain): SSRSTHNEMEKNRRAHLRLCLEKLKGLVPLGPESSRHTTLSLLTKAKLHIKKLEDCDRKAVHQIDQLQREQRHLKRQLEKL
| Strand | E-score |
| --- | --- |
| CCCATGCA | 0.327 |
| ATGTGGCC | 0.268 |
| GCGTGCAC | 0.388 |
| ACACGAGC | 0.267 |
| AAACATGC | 0.396 |
| CATATGCG | 0.323 |
| GGCATGCC | 0.396 |
| AACATGCC | 0.291 |
| CCGTCCAC | 0.283 |
| CGCCGCAC | 0.26 |
| CACGTGGG | 0.493 |
| GCCCACGC | 0.375 |
| GCACGCTA | 0.319 |
| ACGCGCGG | 0.262 |
| CGACCGCC | 0.266 |
| ACGTGTCA | 0.315 |
| CACGCGAA | 0.291 |
| CACATGCG | 0.45 |
| GCGTGCGA | 0.362 |
| ACGCCACG | 0.335 |
| CGTGAAAC | 0.258 |
| GAGCGTGC | 0.37 |

Set 5 — technique: RNA Bind-n-Seq; form: RNA; matrix: in vitro; tested at: not given; notes: RNA with constant flanks, ends assumed; relative to: input RNA pool; reading: higher = stronger binding
Target: RING finger protein unkempt homolog, zinc fingers 1-6, GST-SBP tag (UNK, Homo sapiens, UniProt Q9C0B0, residues 30-357)
Residues (chain): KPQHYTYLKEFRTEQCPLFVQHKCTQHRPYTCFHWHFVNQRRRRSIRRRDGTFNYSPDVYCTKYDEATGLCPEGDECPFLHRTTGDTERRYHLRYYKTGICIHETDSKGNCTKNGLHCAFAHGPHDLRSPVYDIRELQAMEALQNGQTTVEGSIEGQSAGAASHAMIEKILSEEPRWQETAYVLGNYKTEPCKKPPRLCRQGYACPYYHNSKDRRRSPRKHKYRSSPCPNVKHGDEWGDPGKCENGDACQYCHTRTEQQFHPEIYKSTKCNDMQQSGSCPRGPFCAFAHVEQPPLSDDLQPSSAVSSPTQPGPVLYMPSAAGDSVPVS
| Strand | bound/input enrichment [ratio] |
| --- | --- |
| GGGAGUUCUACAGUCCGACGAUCAGUAAGCGGGAUUUUAUGCUGAUCACAAACAAAUCCUUGAAAGAAGAAGAUGGAGAAGAAACCGUUACCUAUGAUCGAGUAUACCAUGCUGUGUCUGUUAUGCGGCAAAGCCGAAGAUACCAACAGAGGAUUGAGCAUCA | 0.306 |
| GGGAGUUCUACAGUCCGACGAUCGAUAUUUUGGGUGUUAAAAAGGAAAUGAUCCGACUAGAUGAAGUCCCCAAUCUGAGUUCCUCCGUAUCCAAUUUCGAUCAGCAGCAGCUCGCUAAUUUCUGCCGGAUUCUGGCUGUCACCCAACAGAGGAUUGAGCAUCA | 0.179 |
| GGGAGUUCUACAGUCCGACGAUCGGUCUCAGCCCCCCACCCCCACCCCUUUGUUUGACUUGCGUCGUCUGAUACUCCGUAUUGCCGCUUUUGUCCGCAUGUUACUACCCUGUAAAUAUGCUGUUCCAAUACUGUUAACAGCCUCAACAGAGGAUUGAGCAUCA | 2.53 |
| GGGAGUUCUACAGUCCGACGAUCGAUCAGAAUGGAAUGACCCCUUUAAUGUGGGCAGCUUAUAGAACACAUAGUGUGGAUCCAACCCGAUUGCUUUUAACAUUCAAUGUUUCAGUUAACCUUGGUGACAAGUAUCACAAAAACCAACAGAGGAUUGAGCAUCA | 0.31 |
| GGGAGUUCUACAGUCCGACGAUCGACGCUAGCGAUGGGACCGUGCGACUUCGUGGACUGCCAUUUGGUUGCAGCAAAGAGGAAACCGUUCAGUUCUUUCAAGGUAUAUUGAGAUCUUCAGGAGUAGCAGGAGUGAAAUCAAAGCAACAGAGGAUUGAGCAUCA | 0.284 |
| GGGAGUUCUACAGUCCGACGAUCUAUUUUGAUACUCUGUAUGUGUACAUAUAAUUUAACUGUAAUAUGUAUGUUGUAAUAUAUUACCGAUACUGUACUUGUCAUAUCAAGGGUUCUUGUUGUUAUUAAUUAAGCUUUAAAUGUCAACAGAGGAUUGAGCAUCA | 0.247 |
| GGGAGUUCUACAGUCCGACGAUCUUCAUUCUACUAUUCCAGAGACUGCAAAACUCCAAGACCACCAAGUUUAUCAAGAGUUUCUCCGUGUUUAUUAACUUAUAUUGCAUUAAGUAUGGGGCACUAGCAUUACAAGAAAUAUUUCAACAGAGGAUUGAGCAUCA | 1.29 |
| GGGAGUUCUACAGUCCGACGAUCUCCGGUUUGGUAAUCAAUACACCUGGAGAAAUGGCUGGAGCCUUCGUGGCAGUGUUUUUACCCGCAAUGUUUUAUGAAGGACUCAAGAUAGCCCGAGAGGGUCUGCUUCGAAAGUCUCAACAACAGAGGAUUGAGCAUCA | 0.0816 |
| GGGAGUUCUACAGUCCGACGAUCUCACUUACUCGAAGUGGGAAGAGAAACAAGAUGUUAAGAAGUUCUUUGCCAUGGAGGGAAAACCGUUGGGAAGGAUAUAGUGGAAAUGUGAAGAUCAGAAAGCGUAAUGAUAUUCCAUGCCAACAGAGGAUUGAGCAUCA | 0.225 |
| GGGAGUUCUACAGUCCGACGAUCAUUUUUCAUUUUGUUUGUUCUAAGAGGAUUGAAAAUCAGUUUAGUUUAAAUGUCUUUCUGUCCGGCCUUUCUUUCUUACAAUGAAGAGAUGAUUCUUCUAGUUUAUGGUUAAAAGUUUUUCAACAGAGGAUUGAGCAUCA | 16.8 |
| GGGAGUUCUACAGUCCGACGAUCGCUGCCUGCACAGAGAAGAAAAUCCCUGUUGUGUUUAGACUACAAGAGGGUUAUGAUCACCGCUACUACUUCAUUGCAACUUUCAUCGCUGACCACAUCAGACACCAUGCUAAGUACCUGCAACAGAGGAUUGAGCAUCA | 0.145 |

Repeated from above (set 3):
| Strand | E-score |
| --- | --- |
| CGAGGAGC | -0.316 |
| AGGTGAAG | -0.0442 |
| CCAGATGC | -0.169 |
| ACCTCTTC | 0.0874 |
| ATTAAACA | 0.318 |
| ACCCGACG | -0.325 |
| CATTACCG | 0.0147 |
| GCGTCACC | -0.293 |
| AGTGTCAC | -0.0624 |
| CCTGCGCA | -0.16 |
| ATTCGAAT | 0.283 |
| CAATATGG | 0.18 |
